Values quoted from earlier work that unrelated publications cite.
Compare with care: the assays were run in different laboratories. ± gives the spread as reported.
Sequence of UniProt P31652 (whole entry, looked up): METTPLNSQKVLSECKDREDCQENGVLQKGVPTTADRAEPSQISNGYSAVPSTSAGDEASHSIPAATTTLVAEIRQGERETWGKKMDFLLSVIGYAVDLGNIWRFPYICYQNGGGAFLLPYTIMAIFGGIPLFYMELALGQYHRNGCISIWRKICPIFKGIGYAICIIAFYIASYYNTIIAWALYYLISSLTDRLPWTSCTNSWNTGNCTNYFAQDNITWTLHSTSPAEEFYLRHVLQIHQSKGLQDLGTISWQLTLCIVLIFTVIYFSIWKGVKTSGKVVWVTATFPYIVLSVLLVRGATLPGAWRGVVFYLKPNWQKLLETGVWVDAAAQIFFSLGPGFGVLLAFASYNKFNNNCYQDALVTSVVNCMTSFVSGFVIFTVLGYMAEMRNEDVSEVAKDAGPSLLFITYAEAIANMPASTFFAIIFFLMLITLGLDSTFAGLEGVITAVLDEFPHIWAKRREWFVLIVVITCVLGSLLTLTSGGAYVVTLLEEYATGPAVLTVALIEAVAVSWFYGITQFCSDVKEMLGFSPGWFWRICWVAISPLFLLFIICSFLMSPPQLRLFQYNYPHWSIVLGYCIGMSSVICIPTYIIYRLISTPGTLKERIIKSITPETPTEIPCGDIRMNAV

Under “Km or Ki”, `COC1C2OP(O)(=S)OCC2OC1n1c(Sc2ccc(Cl)cc2)nc2c(N)ncnc21` (stereo not shown) is recorded as 0.4 µM (PDE5; cyclic nucleotide hydrolysis, substrate or inhibitor, isothermal titration calorimetry).
The Km of `C[C@]12CCC(=O)CC1=CC[C@@H]1[C@@H]2CC[C@]2(C)C(=O)CC[C@@H]12` is reported as 23 ± 1 µM (ketosteroid isomerase Y55F; substrate; pH 7.0, 3.3 % methanol).
Under “SOD, peroxidase, catalase activity”, `N#C/N=C1\SCCN1Cc1ccc(Cl)nc1` is recorded as “inhibited” (Eisenia fetida; soil; 1.0 and 3.0 mg/kg).
Under activity, `N[C@]1(c2ccccc2Cl)CCC[C@H](O)C1=O` is recorded as “inactive” (opioid receptors; binding, competitive binding screen; concentration not given).
`CC(C)(C)OC(=O)c1cc2c(cn1)[nH]c1ccccc12` gave an efficacy of 96 ± 7% (human GABAA α1β3γ2 receptor; modulator, two-electrode voltage clamp; Xenopus oocytes; saturating, together with: GABA EC50; relative to: GABA response).
With `tetrahydrofolate` the Km was 20 µM (serine hydroxymethyltransferase, human; substrate).
`O=[P@]1(S)OC[C@H]2O[C@@H](n3cnc4cc(Cl)c(Cl)cc43)[C@H](O)[C@@H]2O1` — result for “Km or Ki”: 17.7 µM (PDE2A; cyclic nucleotide hydrolysis, substrate or inhibitor, isothermal titration calorimetry).
For `GRPQGPPQ`, the inhibition was 97% (Porphyromonas gingivalis; fimbrial binding to PRP1-coated hydroxyapatite, inhibitor; peptide; concentration not given).
`O=c1c2nc(Br)n([C@@H]3O[C@@H]4CO[P@@](O)(=S)O[C@H]4[C@H]3O)c2nc2[nH]c(-c3ccccc3)cn12`: “Km or Ki” 4.09 µM (PDE5; cyclic nucleotide hydrolysis, substrate or inhibitor, isothermal titration calorimetry).
For `COC(=O)[C@H]1[C@@H](OC(=O)c2ccccc2)C[C@@H]2CC[C@H]1N2C`, EC50 read “inactive” (Slc6a4 (Rattus norvegicus, UniProt P31652); transporter-mediated release, substrate; rat brain synaptosomes).

Excerpt of the above:
The Km of `C[C@]12CCC(=O)CC1=CC[C@@H]1[C@@H]2CC[C@]2(C)C(=O)CC[C@@H]12` is reported as 23 ± 1 µM (ketosteroid isomerase Y55F; substrate; pH 7.0, 3.3 % methanol).
